# Measured values from different studies.
# Compare with care: the assays were run in different laboratories. ± marks the error that the study gave.
# ESR2: Estrogen receptor beta (ESR2, Homo sapiens, UniProt Q92731)
# SLC10A2: Ileal sodium/bile acid cotransporter (SLC10A2, Homo sapiens, UniProt Q12908)
# RIPK1: Receptor-interacting serine/threonine-protein kinase 1 (RIPK1, Homo sapiens, UniProt Q13546)
# ABO G235S/G268A/L266M/R176G: Histo-blood group ABO system transferase (ABO, Homo sapiens, UniProt P16442, G235S/G268A/L266M/R176G)
# ESR1: Estrogen receptor (ESR1, Homo sapiens, UniProt P03372)
# ALB: Albumin (ALB, Homo sapiens, UniProt P02768)
# CHRM5: Muscarinic acetylcholine receptor M5 (CHRM5, Homo sapiens, UniProt P08912)
# ADORA1: Adenosine receptor A1 (ADORA1, Homo sapiens, UniProt P30542)
# T1: pre-miR-21 RNA (Homo sapiens); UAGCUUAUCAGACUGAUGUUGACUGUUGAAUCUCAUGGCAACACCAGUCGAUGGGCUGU
# T2: DNA aptamer; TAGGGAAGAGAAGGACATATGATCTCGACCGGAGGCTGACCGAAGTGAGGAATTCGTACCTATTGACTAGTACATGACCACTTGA
SMILES,target,assay,system,conditions,scale,quantity,value
CCC(=C(c1ccc(O)cc1)c1ccc(OCCN(C)CCOCCOCCOCCOCCOCCOCCOCCOCCOCCOCCOCCN(C)CCOc2ccc(C(=C(CC)c3ccccc3)c3ccc(O)cc3)cc2)cc1)c1ccccc1 (mixture of isomers),ESR2,,,"concentration not given, Z-Z:Z-E:E-E 1:2:1, added: [3H]-estradiol",relative to: estradiol,relative binding affinity,9.75 ± 0.57%
C[C@H](CCC(=O)N[C@@H](CCC(=O)Nc1cncc(Br)c1)C(=O)O)[C@H]1CC[C@H]2[C@@H]3[C@H](O)C[C@@H]4C[C@H](O)CC[C@]4(C)[C@H]3CC[C@]12C,SLC10A2,"transport, substrate, LC-MS/MS",ASBT-MDCK cells,,,Kt,33 µM
CCc1nc2cc3ccccc3cc2cc1C(=O)N[C@@H](CCCCN)C(=O)N[C@@H](C/C=C\C[C@H](NC(=O)[C@H](CCCCN)NC(=O)c1cc2cc3ccccc3cc2nc1CC)C(=O)N1CCC[C@H]1C(=O)NCCCN)C(=O)N1CCC[C@H]1C(=O)NCCCN,(CCUG)10 RNA,SPR,,,,residence time,253 s
CC(=O)N(CC(=O)N(C)[C@@H](C)C(=O)N(Cc1c[nH]c2cc(Cl)ccc12)[C@@H](C)C(=O)N(C)[C@@H](C)C(=O)N(CCC(C)(C)C)[C@@H](C)C(=O)N1CCNCC1)Cc1ccccc1,"E3 ubiquitin-protein ligase Mdm2, N-terminal domain 17-125 (MDM2, Homo sapiens, UniProt Q00987)",isothermal titration calorimetry,PBS,"concentration not given, 25 °C",,binding entropy term (-TΔS),-1.09 kcal/mol
O=C(Cc1cccc(C(F)(F)F)c1)Nc1cc(Oc2cc3sc(NC(=O)C4CC4)nc3cc2Br)ccc1F,RIPK1,KINOMEscan binding Kd,,,"relative to: RIPK1 over RIPK3, higher = more RIPK1-selective",selectivity ratio,> 28
NC(=O)C1CCNC(=O)C(CCCNC(=O)c2cnccn2)NC(=O)C(Cc2ccco2)NC(=O)C(CC=Cc2ccccc2)NC(=O)C=CC(=O)N1 (stereo not shown),"MAPKAPK2 (Homo sapiens, UniProt P49137)",DNA-templated library selection,,one selection round,,enrichment factor,1.8
CCCCCCCCO[C@@H]1O[C@H](CO)[C@H](O)[C@H](O)[C@H]1O[C@@H]1O[C@@H](C)[C@@H](O)[C@@H](O)[C@@H]1O,ABO G235S/G268A/L266M/R176G,methyl-TROSY NMR titration lineshape analysis,,apo enzyme,,kon,1.9e+07 M⁻¹ s⁻¹
O=C1C[C@@H](c2ccc(O)c(-c3c(O)cc(O)c4c3O[C@H](c3ccc(O)cc3)CC4=O)c2)Oc2cc(O)cc(O)c21,"PRXC1A (Armoracia rusticana, UniProt P00433)","oxidation, substrate",,,,Vmax,2.49 ± 0.8 µmol/min/mg
O=c1[nH]cnc2c(CN3C[C@@H](O)[C@H](O)C3)c[nH]c12,"PNP (Homo sapiens, UniProt P00491)",,,first subunit,,binding free energy,-13.5 ± 0.5 kcal/mol
N[C@@H](Cc1ccc(O)c(I)c1)C(=O)O,"Iodotyrosine deiodinase (IYD, Thermotoga neapolitana, UniProt B9K712, M41A)","binding, FMN fluorescence quenching",,25 °C,,"Kd ratio, M41A over wild type",5 fold
CCC(=C(c1ccc(Cl)cc1)c1ccc(OCCN(C)C)cc1)c1ccc(Cl)cc1,ESR1,"reporter gene, agonist, yeast estrogen screen",,1 µM,relative to: DMSO,fold activation,1.17 ± 0.07 fold
CC(C)C(=O)N1CC=C(c2cc3c(Nc4cc5ncsc5cc4F)ncnc3s2)CC1,RIPK1,enzyme activity,,1 µM,relative to: untreated,remaining activity,100 ± 5%
CN1CCN(c2ccc(-c3ccc4[nH]c(-c5ccc(OCCCC(=O)N6CCN(c7nncc8sccc78)CC6)cc5)nc4c3)cc2)CC1,"T1, pre-miR-21 RNA (Homo sapiens)","RNase L cleavage, competitor, RNase L cleavage assay",,added: RIBOTAC TGP-21-C1-3,,IC50,13 µM
[C-]#[O+].[C-]#[O+].[C-]#[O+].[C-]#[O+].[C-]#[O+].[C-]#[O+].[Cl-].[Cl-].[Re+].[Re+].c1cnc(-c2ncccn2)nc1,ALB,tryptophan fluorescence quenching,,concentration not given,,number of binding sites,1.48
O=C(CSC(=S)N1CCCCCC1)Nc1cccc2c1C(=O)c1ccccc1C2=O,"FGR (Homo sapiens, UniProt P09769)",RTK phosphorylation array,A549,concentration not given,relative to: control,phosphorylation decrease,2.8 fold
CC(Cc1ccc(Cl)cc1)=C(c1ccc(Cl)cc1)c1ccc(OCCN2CCCCCC2)cc1,ESR1,"reporter gene, agonist, yeast estrogen screen",,1 µM,relative to: DMSO,fold activation,1.05 ± 0.16 fold
CCCCCCOc1ccc(C(=O)OCCN2CC=CCC2)cc1,CHRM5,recovery of [3H]NMS binding after washing,membranes,100 µM,,dissociation half-time,2.6 ± 0.3 h
CCSc1nc2c([nH]1)c(=O)n(C)c(=O)n2C,ESR1,"reporter gene, ERE luciferase",T47D-KBluc,"10 µM, 24 h, added: estradiol 5 nM",relative to: maximal luciferase activity,reporter activity,98%
CCCNCC(=O)O,ALB,circular dichroism,,0.12 mM,,β-sheet content,17.3%
Nc1c2[nH]nc3c2nc[n+]1[C@@H]1O[C@H](COP(=O)(O)OP(=O)([O-])OC[C@H]2O[C@@H]3[C@H](O)[C@@H]2O)[C@@H](O)[C@H]1O,"cADPR receptor, sea urchin","Ca2+ release, fluo-3 fluorimetry",sea urchin egg homogenate,concentration not given,,activity class,active
COc1ccc(-c2nc(CSc3nc(N)c(C#N)c(-c4ccccc4)c3C#N)cs2)cc1,ADORA1,"cAMP, agonist",,,,Emax,97%
C=CCCCCCCO[C@@H]1O[C@H](CO)[C@H](O)[C@H](O[C@@H]2O[C@H](CO)[C@H](O)[C@H](O)[C@H]2O[C@@H]2O[C@@H](C)[C@@H](O)[C@@H](O)[C@@H]2O)[C@H]1O,ABO G235S/G268A/L266M/R176G,methyl-TROSY NMR titration lineshape analysis,,apo enzyme,,kon,2e+06 M⁻¹ s⁻¹
Cc1ccc(C(=O)Nc2cc(S(=O)(=O)O)cc3ccc(S(=O)(=O)O)cc23)cc1NC(=O)Nc1cc(C(=O)Nc2cc(S(=O)(=O)O)cc3ccc(S(=O)(=O)O)cc23)ccc1C,"Neutrophil elastase (ELANE, Homo sapiens, UniProt P08246)","enzyme activity, inhibitor, chromogenic substrate hydrolysis",,"pH 7.4, 37 °C, 100 mM NaCl, added: substrate S-1384",,maximal inhibition,104 ± 13.6%
O=Cc1ccc(-c2cn([C@@H]3O[C@H](COP(=O)(O)OP(=O)(O)O[C@H]4O[C@H](CO)[C@H](O)[C@H](O)[C@H]4O)[C@@H](O)[C@H]3O)c(=O)[nH]c2=O)s1,"ABO (Homo sapiens, UniProt P16442, G268A/L266G)","substrate, HPLC",,,relative to: natural donor,kcat/Km,1%
C[C@]12CC[C@@H]3c4ccc(O)cc4C(=NOCC(=O)O)C[C@H]3[C@@H]1CC[C@@H]2O,"T2, DNA aptamer",APAA,,NaCl 100 mM,,Kd,0.0272 µM
COc1ccc(NC(=O)CC[C@H](NC(=O)CC[C@@H](C)[C@H]2CC[C@H]3[C@@H]4[C@H](O)C[C@@H]5C[C@H](O)CC[C@]5(C)[C@H]4CC[C@]23C)C(=O)O)cn1,SLC10A2,"transport efficiency, substrate, LC-MS/MS",ASBT-MDCK,,,normalized Jmax/Kt,0.202 µM⁻¹
CN1CCN(CC(=O)N2N=C3/C(=C/c4ccccc4)CCCC3C2c2ccccc2)CC1 (mixture of isomers),"ALOX5 (Homo sapiens, UniProt P09917)",activator,,"10 µM, added: arachidonic acid 10 µM",relative to: activator 0 µM,enzyme activity,78%
CCNC(=O)[C@H]1O[C@@H](n2cnc3c(Nc4ccc(I)cc4)ncnc32)[C@H](O)[C@@H]1O,"ADORA3 (Homo sapiens, UniProt P0DMS8)",kinetic radioligand binding,,"10 °C, no GTP, added: [3H]PSB-11",,koff,0.00014 ± 1e-05 s⁻¹
CC1=C(/C=C/C=C\C=C\C(C)=C\C=O)C(C)(C)CCC1,"Rhodopsin (RHO, Homo sapiens, UniProt P08100, P23H)",immunoblot,661W rod opsin P23H,2.5 µM,relative to: mature over immature,mature over immature ratio,~3
CC(C)=CCc1c(O)cc(O)c2c1O[C@H](c1ccccc1)[C@@H](O)C2=O,"PTPN1 (Homo sapiens, UniProt P18031)",fluorescence quenching,,concentration not given,,binding site number,0.99
C[C@@]1(CCCN2CCN(c3ccccn3)CC2)Cc2cc(Cl)ccc2C1=O,"HTR7 (Homo sapiens, UniProt P34969)","binding, radioligand binding","HEK293 transfected, membranes",added: [3H]5-HT,,Hill slope,-0.59 ± 0.02
N=C(N)NCCC[C@H](NC(=O)[C@H](CC(=O)O)NC(=O)[C@@H]1CSCCCC(=O)NCC(=O)N[C@@H](Cc2c[nH]cn2)C(=O)N[C@H](Cc2ccccc2)C(=O)N[C@@H](CCCNC(=N)N)C(=O)N[C@@H](Cc2c[nH]c3ccccc23)C(=O)N1)C(=O)N[C@@H](Cc1ccccc1)C(=O)NCC(N)=O,"MC3R (Homo sapiens, UniProt P41968)","cAMP accumulation, agonist",HEK293 expressing MC3R,10 µM,relative to: MT-II,activation,50%
CN(C1COC1)C(C)(C)/C=C(\C#N)C(=O)N1CCC[C@H]1Cn1nc(-c2ccc(Oc3ccccc3)cc2F)c2c(N)ncnc21,"BTK (Homo sapiens, UniProt Q06187)",enzyme activity,,"concentration not given, 3 days dialysis, room temperature",,recovery of activity,25%
CC/C(=C(\c1ccc(O)cc1)c1ccc(OCCN(C)CCOCCOCCOCCN(C)CCOc2ccc(/C(=C(\CC)c3ccccc3)c3ccc(O)cc3)cc2)cc1)c1ccccc1,ESR2,radioligand competition binding,,"concentration not given, Z-E/E isomer form, added: [3H]estradiol tracer",relative to: estradiol,relative binding affinity,9.57%
CC(=N)NCc1cccc(CN)c1,"Nitric oxide synthase 1 (Mus musculus, UniProt Q9Z0J4)",,adult mouse hippocampal slices,"1 µM, added: EHNA 300 µM",,NMDA-evoked cGMP accumulation,no effect
CCNC(=O)[C@H]1O[C@@H](n2cnc3c(NCCOCCOCCNC(=O)CCCCCNC(=O)COc4ccc(/C=C/C5=[N+]6C(=Cc7ccc(-c8cccs8)n7[B-]6(F)F)C=C5)cc4)ncnc32)[C@H](O)[C@@H]1O,ADORA1,"radioligand binding, whole-cell binding",CHO-A1,"2 h, added: [3H]DPCPX","relative to: specific binding, 10 µM XAC",maximal inhibition,24.3 ± 4.8%
Cc1ccc(N2C(=O)c3ccccc3NC23C(=O)N(C)c2ccc(Br)cc23)cc1 (stereo not shown),"Aminopeptidase N (ANPEP, Homo sapiens, UniProt P15144)","enzyme activity, inhibitor","HEK293 overexpressing aminopeptidase N, membranes",added: L-Leu-pNA,,pIC50,inactive
O=C(Nc1nc2ccccc2s1)C1CCN(S(=O)(=O)c2ccc(F)c(Cl)c2)CC1,"N-acyl-phosphatidylethanolamine-hydrolyzing phospholipase D (Homo sapiens, UniProt Q6IQ20)",enzyme activity,,"concentration not given, added: PED-A1 substrate",,activity,no effect
CCCCOc1ccc(C(=O)OCC[N+]2(C)CC=CCC2)cc1 (stereo not shown),CHRM5,recovery of [3H]NMS binding after washing,membranes,100 µM,,dissociation half-time,0.5 ± 0.1 h
CCCc1c(-c2ccc(O)cc2)nn(-c2ccc(O)cc2)c1-c1ccc(OCCN2CCCCC2)cc1,ESR2,competitive radioligand binding,,concentration not given,"relative to: estradiol, higher = stronger binding",relative binding affinity,0.54 ± 0.13

# Excerpt of the above:
SMILES,target,assay,system,conditions,scale,quantity,value
C[C@H](CCC(=O)N[C@@H](CCC(=O)Nc1cncc(Br)c1)C(=O)O)[C@H]1CC[C@H]2[C@@H]3[C@H](O)C[C@@H]4C[C@H](O)CC[C@]4(C)[C@H]3CC[C@]12C,SLC10A2,"transport, substrate, LC-MS/MS",ASBT-MDCK cells,,,Kt,33 µM
CCNC(=O)[C@H]1O[C@@H](n2cnc3c(NCCOCCOCCNC(=O)CCCCCNC(=O)COc4ccc(/C=C/C5=[N+]6C(=Cc7ccc(-c8cccs8)n7[B-]6(F)F)C=C5)cc4)ncnc32)[C@H](O)[C@@H]1O,ADORA1,"radioligand binding, whole-cell binding",CHO-A1,"2 h, added: [3H]DPCPX","relative to: specific binding, 10 µM XAC",maximal inhibition,24.3 ± 4.8%
NC(=O)C1CCNC(=O)C(CCCNC(=O)c2cnccn2)NC(=O)C(Cc2ccco2)NC(=O)C(CC=Cc2ccccc2)NC(=O)C=CC(=O)N1 (stereo not shown),"MAPKAPK2 (Homo sapiens, UniProt P49137)",DNA-templated library selection,,one selection round,,enrichment factor,1.8
